Published values pooled from the literature.
Numbered parts are unrelated; each lists some results of a single study. Changes are numbered by the printed parent chain.

Sample 1
Target: TAR DNA-binding protein 43, full length, His tag (TARDBP, Homo sapiens, UniProt Q13148, residues 1-414)
Method: RNA Bind-n-Seq
Molecule type: RNA
Sample: in vitro
Tested at: 20 nM
Setting: 6-mer, flanks averaged, single round
Added: 150 mM KCl
Relative to: input library
Reading: higher = stronger binding
Sequence	6-mer enrichment (R)
ACCGCC	0.667
UAUAAG	0.738
UAAGAU	0.627
AGGCCC	0.783
CCAAGC	0.717
AGAACU	0.732
UCACGC	0.654
CGCUCA	0.609
ACUACU	0.58
CUCAUG	0.646
CCGAUA	0.613
CGAUGC	0.764

Sample 2
Target: CCND3, cyclin fold, Cln2 fusion (human)
Method: yeast growth competition, sequencing
Sample: yeast
Setting: weak parent motif
Relative to: not given
Reading: higher = stronger binding
Starting sequence: CDKN1A docking peptide (human); SKACRRLFGPVDS; partner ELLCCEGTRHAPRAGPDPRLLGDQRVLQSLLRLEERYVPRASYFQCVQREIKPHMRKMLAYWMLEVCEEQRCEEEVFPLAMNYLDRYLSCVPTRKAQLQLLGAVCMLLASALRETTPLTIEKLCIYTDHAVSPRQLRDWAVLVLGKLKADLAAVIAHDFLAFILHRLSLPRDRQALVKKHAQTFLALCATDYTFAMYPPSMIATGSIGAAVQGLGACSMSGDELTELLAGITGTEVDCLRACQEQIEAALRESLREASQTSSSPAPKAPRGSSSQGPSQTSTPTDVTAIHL
Change	normalised enrichment score
C4A	0.402
D12F	0.0616
K2N	0.691
R6T	0.428
C4P	0.215
R6H	0.136
D12G	0.317
G9V	0.361
L7A	0.168
V11C	0.363

Sample 3
Target: ABI1, truncated, D143A, DHFR fusion (Arabidopsis thaliana)
Method: DHFR PCA, deep sequencing
Sample: yeast
Setting: methotrexate growth selection, single substitutions
Added: (+)-ABA 1.4 µM
Relative to: wild-type fitted maximum
Reading: higher = stronger binding
Starting sequence: PYL1, truncated, DHFR fusion (Arabidopsis thaliana); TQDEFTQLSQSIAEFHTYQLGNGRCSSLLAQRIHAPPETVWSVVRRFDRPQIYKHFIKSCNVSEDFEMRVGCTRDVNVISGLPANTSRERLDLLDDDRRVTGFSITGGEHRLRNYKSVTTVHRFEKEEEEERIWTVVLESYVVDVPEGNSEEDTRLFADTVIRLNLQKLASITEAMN; partner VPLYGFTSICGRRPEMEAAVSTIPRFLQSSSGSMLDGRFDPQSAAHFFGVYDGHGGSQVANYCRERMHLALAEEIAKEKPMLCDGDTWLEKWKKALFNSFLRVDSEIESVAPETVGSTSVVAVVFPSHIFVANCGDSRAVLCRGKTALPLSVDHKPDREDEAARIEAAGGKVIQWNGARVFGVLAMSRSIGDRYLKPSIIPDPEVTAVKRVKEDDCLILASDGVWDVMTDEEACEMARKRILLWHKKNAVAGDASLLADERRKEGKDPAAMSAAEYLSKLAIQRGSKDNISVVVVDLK
Change	relative binding score
N85V	67.7%
G71K	-10.9%
I33Q	-0.289%
Q167N	37.7%
L166I	10.3%
P50K	-2.1%
V136N	4.31%

Mixed results
Substance	target	test	test system	conditions	scale	quantity	value
PhoQ, residues 284 288 289 292 302 303 MLMVEA	PhoP, residues 12 14 15 18 19 SQCLL (Escherichia coli, UniProt P23836)	Sort-seq, item: YFP reporter	E. coli	PhoQ-PhoP variant library, added: 10 µM Mg2+	relative to: high Mg2+ state, higher = stronger signaling	fold induction	9.36

A few entries again (sample 1):
Sequence	6-mer enrichment (R)
AGAACU	0.732
UCACGC	0.654
CGCUCA	0.609
